Results of several laboratories.
Protocols differ between the studies behind these lines. Numbers after ± are the reported error.

c1ccc(C2CC(Nc3ccc(-c4ccc(NC5=NOC(c6ccccc6)C5)cc4)cc3)=NO2)cc1 (stereo not drawn)  logP (shake flask UV/Vis; n-octanol/water): 6.6
ClC1C[N+]2=Cc3ccc4[n]3[Au-]23[n]2c(ccc2-c2nc5ccccc5nc2-4)C=[N+]3C1.F[P-](F)(F)(F)(F)F  logP (octanol/water): 1.06
COc1ccc(Nc2nc(Nc3ccc(OCCOCCOCC[18F])cc3)ncc2Br)cc1  logP (n-octanol/PBS; pH 7.4): 2.86 ± 0.06
O=C(O)/C=C\C(=O)NCCCOCCOCCOCCCNC(=O)/C=C\C(=O)O  logP (shake-flask; n-octanol/water; 24 °C): -0.43
CN1CCN(c2ccc(/C=C/c3cc(=O)cc(/C=C/c4ccc(N5CCN(C)CC5)cc4)o3)cc2)CC1  logP (n-octanol/10 mM PBS; pH 7.4): 1.2
Cc1nc(C)c(-c2ccnc(Nc3cccc(C#N)c3)n2)s1  logP (octanol/buffer, 40 mM buffer; pH 11): 3.89
COc1ccc(C=CC(=O)Nc2ccc(-c3ccc(NC(=O)C=Cc4ccc(OC)cc4)cc3)cc2)cc1  logP (shake flask UV/Vis; n-octanol/water): 6.7
O=c1cc(/C=C/c2ccc(N3CCCC3)cc2)oc(/C=C/c2ccc(N3CCCC3)cc2)c1  logP (n-octanol/10 mM PBS; pH 7.4): 1.34
CC(=O)N1N=C(Nc2ccc(-c3ccc(NC4=NN(C(C)=O)C(c5ccc(O)cc5)C4)cc3)cc2)CC1c1ccc(O)cc1 (stereo not drawn)  logP (shake flask UV/Vis; n-octanol/water): 5.43
O=c1cc(/C=C/c2ccc(N3CCOCC3)cc2)oc(/C=C/c2ccc(N3CCOCC3)cc2)c1  logP (n-octanol/10 mM PBS; pH 7.4): 0.73
O=c1cc(-c2ccccc2)oc2cc(O)cc([O][Ga+][O]c3cc(O)cc4oc(-c5ccccc5)cc(=O)c34)c12  logP (shake-flask octanol/PBS; pH 7.4, 37 °C): 1.78
CC(CCC(=O)[O][Pt]([NH2])([NH2])([OH])([Cl])[Cl])C1CCC2C3CCC4CC(O)CCC4(C)C3CCC12C (stereo not drawn)  logP (shake flask; octanol/phosphate buffer; pH 7.4): -0.88
CN(C)c1ccc(C=CC(=O)Nc2ccc(-c3ccc(NC(=O)C=Cc4ccc(N(C)C)cc4)cc3)cc2)cc1  logP (shake flask UV/Vis; n-octanol/water): 6.71
O=c1cc(-c2ccccc2)oc2cc(O)c(O)c([O][Ga+][O]c3c(O)c(O)cc4oc(-c5ccccc5)cc(=O)c34)c12  logP (shake-flask octanol/PBS; pH 7.4, 37 °C): 1.38
Oc1ccc(C2CC(Nc3ccc(-c4ccc(NC5=NOC(c6ccc(O)cc6)C5)cc4)cc3)=NO2)cc1 (stereo not drawn)  logP (shake flask UV/Vis; n-octanol/water): 5.41
Cc1cc(NC(=O)c2ccc(Br)cc2)n[nH]1  logP (octanol/buffer; 67 µM, pH 11): 2.7
O=C(NCCCOCCOCCOCCCNC(=O)[C@H]1CCCC[C@H]1C(=O)O)[C@H]1CCCC[C@H]1C(=O)O  logP (shake-flask; n-octanol/water; 24 °C): 0.02
C1=[N+]2CCC[N+]3=Cc4ccc5[n]4[Au-]23[n]2c1ccc2-c1nc2ccccc2nc1-5.F[P-](F)(F)(F)(F)F  logP (octanol/water): 0.776
O=C(C=Cc1ccc(O)cc1)Nc1ccc(-c2ccc(NC(=O)C=Cc3ccc(O)cc3)cc2)cc1  logP (shake flask UV/Vis; n-octanol/water): 5.42
CC1(C)C[N+]2=Cc3ccc4[n]3[Au-]23[n]2c(ccc2-c2nc5ccccc5nc2-4)C=[N+]3C1.F[P-](F)(F)(F)(F)F  logP (octanol/water): 1.01
COc1cc(C2CC(Nc3ccc(-c4ccc(NC5=NOC(c6ccc(O)c(OC)c6)C5)cc4)cc3)=NO2)ccc1O (stereo not drawn)  logP (shake flask UV/Vis; n-octanol/water): 5.02
NS(=O)(=O)c1ccc(N/N=C2\C(=O)Nc3ccc(C(=O)NCCc4c[nH]cn4)cc32)cc1  logP (octanol/buffer; pH 11): 1.01
COc1ccccc1C1CC(Nc2ccc(-c3ccc(NC4=NN(C(C)=O)C(c5ccccc5OC)C4)cc3)cc2)=NN1C(C)=O (stereo not drawn)  logP (shake flask UV/Vis; n-octanol/water): 6.78
CC(CCC(=O)OCc1cc(CN(C(=O)OCc2ccc(B(O)O)cc2)[c-]2cccc2)cc(-c2cn(-c3cc4ccc(O)cc4oc3=O)nn2)c1)C1CCC2C3C(O)CC4CC(O)CCC4(C)C3CC(O)C12C.[Fe+2].c1cc[cH-]c1 (stereo not drawn)  logP (RP-TLC; pH 7.4): 5.7 ± 0.07

For quick reference, copied from above:
CN1CCN(c2ccc(/C=C/c3cc(=O)cc(/C=C/c4ccc(N5CCN(C)CC5)cc4)o3)cc2)CC1  logP (n-octanol/10 mM PBS; pH 7.4): 1.2
CC(CCC(=O)OCc1cc(CN(C(=O)OCc2ccc(B(O)O)cc2)[c-]2cccc2)cc(-c2cn(-c3cc4ccc(O)cc4oc3=O)nn2)c1)C1CCC2C3C(O)CC4CC(O)CCC4(C)C3CC(O)C12C.[Fe+2].c1cc[cH-]c1 (stereo not drawn)  logP (RP-TLC; pH 7.4): 5.7 ± 0.07
CN(C)c1ccc(C=CC(=O)Nc2ccc(-c3ccc(NC(=O)C=Cc4ccc(N(C)C)cc4)cc3)cc2)cc1  logP (shake flask UV/Vis; n-octanol/water): 6.71
